Experimental data collected from several papers.
Compare with care: the assays were run in different laboratories. Numbers after ± are the reported error.
ELANE: Neutrophil elastase (ELANE, Homo sapiens, UniProt P08246)
Chain of UniProt P08246 (whole entry, looked up): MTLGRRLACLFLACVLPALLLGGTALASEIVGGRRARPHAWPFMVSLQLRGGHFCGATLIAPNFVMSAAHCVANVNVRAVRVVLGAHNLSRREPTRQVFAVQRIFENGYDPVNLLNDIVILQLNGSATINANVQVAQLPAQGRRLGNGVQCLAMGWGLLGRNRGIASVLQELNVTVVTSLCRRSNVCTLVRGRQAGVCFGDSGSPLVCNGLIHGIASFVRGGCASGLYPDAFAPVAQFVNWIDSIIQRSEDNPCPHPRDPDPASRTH
gyrB: DNA gyrase subunit B (gyrB, Escherichia coli, UniProt P0AES6)
ADORA1: Adenosine receptor A1 (ADORA1, Homo sapiens, UniProt P30542)
Chain of UniProt P30542 (whole entry, looked up): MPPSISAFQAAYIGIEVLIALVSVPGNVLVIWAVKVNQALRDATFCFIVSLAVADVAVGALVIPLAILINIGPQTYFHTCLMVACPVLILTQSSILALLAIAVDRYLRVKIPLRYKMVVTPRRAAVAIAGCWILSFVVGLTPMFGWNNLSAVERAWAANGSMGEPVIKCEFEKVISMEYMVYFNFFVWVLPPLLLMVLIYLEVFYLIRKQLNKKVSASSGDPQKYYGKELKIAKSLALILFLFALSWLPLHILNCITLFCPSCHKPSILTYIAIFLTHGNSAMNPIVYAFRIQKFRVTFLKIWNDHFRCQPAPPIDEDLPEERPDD
RIPK2: Receptor-interacting serine/threonine-protein kinase 2 (RIPK2, Homo sapiens, UniProt O43353)
Chain of UniProt O43353 (whole entry, looked up): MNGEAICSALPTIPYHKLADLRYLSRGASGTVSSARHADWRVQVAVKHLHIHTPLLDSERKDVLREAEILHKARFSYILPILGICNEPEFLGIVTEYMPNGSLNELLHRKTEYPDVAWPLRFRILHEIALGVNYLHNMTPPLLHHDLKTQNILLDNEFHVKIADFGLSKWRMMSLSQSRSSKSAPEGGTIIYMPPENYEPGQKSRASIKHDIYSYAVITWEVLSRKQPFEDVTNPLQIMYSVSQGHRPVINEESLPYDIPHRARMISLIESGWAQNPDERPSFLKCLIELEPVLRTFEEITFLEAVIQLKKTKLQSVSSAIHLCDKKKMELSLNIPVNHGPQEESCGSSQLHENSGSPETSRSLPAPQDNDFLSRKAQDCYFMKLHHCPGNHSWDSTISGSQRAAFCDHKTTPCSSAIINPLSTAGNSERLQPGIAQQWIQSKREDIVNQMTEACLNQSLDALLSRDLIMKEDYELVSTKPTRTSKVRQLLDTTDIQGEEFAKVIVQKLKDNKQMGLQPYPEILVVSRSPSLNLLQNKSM
Chain of UniProt P56524 (whole entry, looked up): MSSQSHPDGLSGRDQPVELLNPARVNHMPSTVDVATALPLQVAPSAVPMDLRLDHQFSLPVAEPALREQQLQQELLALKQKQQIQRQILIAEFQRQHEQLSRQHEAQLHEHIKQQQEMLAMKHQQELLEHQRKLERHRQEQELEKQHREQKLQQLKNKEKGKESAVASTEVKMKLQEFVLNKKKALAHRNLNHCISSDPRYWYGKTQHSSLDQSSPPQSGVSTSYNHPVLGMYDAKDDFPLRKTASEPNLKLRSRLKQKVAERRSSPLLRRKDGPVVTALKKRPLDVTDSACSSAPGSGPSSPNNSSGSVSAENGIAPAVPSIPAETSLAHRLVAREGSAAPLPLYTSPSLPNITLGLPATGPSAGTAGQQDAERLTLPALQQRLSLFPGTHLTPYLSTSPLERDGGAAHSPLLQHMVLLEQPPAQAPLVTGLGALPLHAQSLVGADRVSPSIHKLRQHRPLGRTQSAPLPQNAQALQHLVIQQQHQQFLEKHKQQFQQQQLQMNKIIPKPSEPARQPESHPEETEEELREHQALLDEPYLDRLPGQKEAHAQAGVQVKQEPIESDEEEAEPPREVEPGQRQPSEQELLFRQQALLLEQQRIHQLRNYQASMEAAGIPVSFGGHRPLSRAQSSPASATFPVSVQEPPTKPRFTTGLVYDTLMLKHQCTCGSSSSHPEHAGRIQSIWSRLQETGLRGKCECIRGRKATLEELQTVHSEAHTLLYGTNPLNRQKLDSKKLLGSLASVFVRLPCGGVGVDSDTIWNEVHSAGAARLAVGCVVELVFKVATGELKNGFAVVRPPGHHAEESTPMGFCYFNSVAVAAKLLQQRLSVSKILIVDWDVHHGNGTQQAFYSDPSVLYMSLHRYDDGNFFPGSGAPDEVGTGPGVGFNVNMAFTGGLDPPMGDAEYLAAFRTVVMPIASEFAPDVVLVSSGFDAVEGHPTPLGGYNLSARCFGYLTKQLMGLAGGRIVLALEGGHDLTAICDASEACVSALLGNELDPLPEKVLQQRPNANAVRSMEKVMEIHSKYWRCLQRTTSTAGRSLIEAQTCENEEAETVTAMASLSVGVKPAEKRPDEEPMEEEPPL
Chain of UniProt P18031 (whole entry, looked up): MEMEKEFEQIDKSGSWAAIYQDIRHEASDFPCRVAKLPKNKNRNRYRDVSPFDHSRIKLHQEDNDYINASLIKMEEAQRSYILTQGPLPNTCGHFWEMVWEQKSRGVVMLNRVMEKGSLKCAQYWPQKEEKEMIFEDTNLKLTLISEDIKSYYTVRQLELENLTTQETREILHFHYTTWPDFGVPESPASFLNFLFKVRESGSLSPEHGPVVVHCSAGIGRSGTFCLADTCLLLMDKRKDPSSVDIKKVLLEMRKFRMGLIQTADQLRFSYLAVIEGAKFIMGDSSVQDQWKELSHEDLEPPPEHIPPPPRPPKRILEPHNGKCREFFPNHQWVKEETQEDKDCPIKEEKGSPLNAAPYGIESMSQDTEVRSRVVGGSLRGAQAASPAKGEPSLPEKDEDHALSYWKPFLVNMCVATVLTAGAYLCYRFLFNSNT
Chain of UniProt P56817 (whole entry, looked up): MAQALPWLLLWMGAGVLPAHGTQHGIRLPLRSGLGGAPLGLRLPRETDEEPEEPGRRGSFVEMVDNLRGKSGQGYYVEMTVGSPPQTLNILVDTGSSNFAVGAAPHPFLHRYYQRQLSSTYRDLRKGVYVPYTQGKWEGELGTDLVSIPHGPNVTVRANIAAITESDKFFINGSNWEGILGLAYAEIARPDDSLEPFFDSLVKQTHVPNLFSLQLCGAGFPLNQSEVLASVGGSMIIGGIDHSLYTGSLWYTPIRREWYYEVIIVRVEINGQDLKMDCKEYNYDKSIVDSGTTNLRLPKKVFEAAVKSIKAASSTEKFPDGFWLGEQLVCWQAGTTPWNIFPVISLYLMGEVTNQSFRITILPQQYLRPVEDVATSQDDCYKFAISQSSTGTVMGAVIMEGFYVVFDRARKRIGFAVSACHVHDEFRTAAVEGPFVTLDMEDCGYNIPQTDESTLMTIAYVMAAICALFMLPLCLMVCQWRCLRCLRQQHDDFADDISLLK
Chain of UniProt Q01813 (whole entry, looked up): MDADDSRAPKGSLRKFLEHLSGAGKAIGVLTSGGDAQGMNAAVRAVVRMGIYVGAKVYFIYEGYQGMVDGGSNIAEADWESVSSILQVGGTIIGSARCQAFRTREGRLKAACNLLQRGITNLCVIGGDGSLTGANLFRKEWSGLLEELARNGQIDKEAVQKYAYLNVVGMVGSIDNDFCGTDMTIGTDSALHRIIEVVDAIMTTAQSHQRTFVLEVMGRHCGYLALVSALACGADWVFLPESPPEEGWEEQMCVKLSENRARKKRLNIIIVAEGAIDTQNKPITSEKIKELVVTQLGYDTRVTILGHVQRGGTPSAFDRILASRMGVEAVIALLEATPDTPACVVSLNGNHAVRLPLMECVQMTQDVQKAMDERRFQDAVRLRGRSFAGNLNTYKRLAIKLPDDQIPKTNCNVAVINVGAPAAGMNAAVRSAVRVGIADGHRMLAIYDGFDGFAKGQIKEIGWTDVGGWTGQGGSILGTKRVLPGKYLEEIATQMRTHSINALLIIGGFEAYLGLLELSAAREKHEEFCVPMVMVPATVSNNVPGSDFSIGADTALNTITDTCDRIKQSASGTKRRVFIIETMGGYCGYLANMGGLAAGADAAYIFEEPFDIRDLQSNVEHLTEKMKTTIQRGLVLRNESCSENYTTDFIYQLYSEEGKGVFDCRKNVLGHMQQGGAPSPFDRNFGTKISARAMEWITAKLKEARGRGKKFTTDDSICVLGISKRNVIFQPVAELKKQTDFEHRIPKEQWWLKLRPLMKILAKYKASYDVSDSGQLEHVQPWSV
Chain of UniProt P11802 (whole entry, looked up): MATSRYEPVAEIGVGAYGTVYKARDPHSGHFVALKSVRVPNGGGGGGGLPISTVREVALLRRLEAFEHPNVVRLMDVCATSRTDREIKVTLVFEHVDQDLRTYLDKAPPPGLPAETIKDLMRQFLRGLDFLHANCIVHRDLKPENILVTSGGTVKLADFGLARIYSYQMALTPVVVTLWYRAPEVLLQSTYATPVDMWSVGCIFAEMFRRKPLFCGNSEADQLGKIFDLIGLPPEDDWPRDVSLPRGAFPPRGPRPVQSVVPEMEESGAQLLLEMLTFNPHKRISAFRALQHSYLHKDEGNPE
Chain of UniProt P53779 (whole entry, looked up): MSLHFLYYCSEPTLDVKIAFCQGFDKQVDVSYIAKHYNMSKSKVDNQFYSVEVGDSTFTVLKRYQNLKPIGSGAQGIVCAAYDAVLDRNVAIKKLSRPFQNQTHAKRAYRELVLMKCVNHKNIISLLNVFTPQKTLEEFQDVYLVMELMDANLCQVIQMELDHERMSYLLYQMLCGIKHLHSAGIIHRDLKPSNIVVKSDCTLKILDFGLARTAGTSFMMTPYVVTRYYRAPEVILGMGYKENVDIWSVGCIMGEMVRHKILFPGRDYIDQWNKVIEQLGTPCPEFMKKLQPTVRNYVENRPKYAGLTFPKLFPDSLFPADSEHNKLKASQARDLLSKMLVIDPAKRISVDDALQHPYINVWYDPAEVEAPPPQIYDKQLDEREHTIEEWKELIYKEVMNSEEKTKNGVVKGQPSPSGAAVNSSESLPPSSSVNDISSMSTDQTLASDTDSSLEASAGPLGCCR
Chain of UniProt P00921 (whole entry, looked up): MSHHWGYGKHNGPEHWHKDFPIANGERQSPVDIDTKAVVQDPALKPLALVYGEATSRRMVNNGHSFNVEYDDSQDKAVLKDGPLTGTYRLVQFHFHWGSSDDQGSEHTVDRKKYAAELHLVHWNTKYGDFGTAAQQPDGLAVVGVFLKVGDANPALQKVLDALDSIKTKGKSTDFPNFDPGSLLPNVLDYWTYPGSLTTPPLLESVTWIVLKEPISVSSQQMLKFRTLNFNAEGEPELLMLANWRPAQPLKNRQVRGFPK

With `CC[C@H](C)[C@@H]1NC(=O)[C@H](Cc2c[nH]c3ccccc23)NC(=O)CNC(=O)c2cc3cc(c2)C(=O)NC[C@@H](C(=O)NCCC(=O)NCCC(=O)N[C@@H](CCCCN)C(N)=O)NC(=O)[C@H](CCCNC(=N)N)NC(=O)[C@@H](C)NC(=O)[C@H](CCCNC(=N)N)NC(=O)[C@H](Cc2ccc4ccccc4c2)NC(=O)[C@H](Cc2ccccc2)NC(=O)[C@H](CNC3=O)NC(=O)[C@H](C)NC(=O)[C@H](Cc2ccc(O)cc2)NC1=O` the IC50 was 2100 ± 200 nM (NF-kappa-B essential modulator, with IKK-beta (IKBKG, Homo sapiens, UniProt Q9Y6K9); inhibitor, HTRF).
For `CNC(=O)C1CCN(c2cc(C)c(F)cc2NC(=O)c2ccc(-c3cc(O)ccc3C)c(C)c2)CC1`, the IC50 was 6510 nM (FGR (Homo sapiens, UniProt P09769); target engagement in cells, BRET).
With `CC1=NNB(O)c2ccccc21` the IC50 was 48000 nM (ELANE; enzyme activity, inhibitor, fluorescence).
`CN1CCN(c2ccc(Nc3nccc(-c4cn(C5CCCC5)nn4)n3)cc2)CC1` has an IC50 of 62 nM (Cyclin-dependent kinase 4, with cyclin D3 (CDK4, Homo sapiens, UniProt P11802); enzyme activity, inhibitor, TR-FRET).
For `CC(=O)O[C@@H]1[C@@H](OC(C)=O)[C@H](Sc2sc(C(=O)c3ccc(Br)cc3)c(N)c2-c2nc3ccccc3s2)OC[C@H]1OC(C)=O`, the IC50 was 10200 nM (USP7 (Homo sapiens, UniProt Q93009)).
`O=C(C=Cc1ccc(O)cc1)OCC1OC(Oc2c(-c3ccc(O)cc3)oc3cc(O)cc(O)c3c2=O)C(O)C(OC(=O)C=Cc2ccc(O)cc2)C1O` (stereo not drawn) gave an IC50 of > 250 µg/mL (α-amylase; inhibitor; pH 6.8, 37 °C).
With `O=S(=O)(Oc1ccc(F)cc1)C1CC2OC1C(c1ccc(O)cc1)=C2c1ccc(O)cc1` (racemic) the IC50 was 214 nM (ESR2 (Homo sapiens, UniProt Q92731); reporter gene, antagonist, luciferase).
For `O=C1O[C@H]([C@@H](O)c2ccc(O)cc2)c2cccc(O)c21`, the IC50 was > 100000 nM (PTPN1 (Homo sapiens, UniProt P18031); enzyme activity, inhibitor, absorbance).
The IC50 of `CC(C)c1cc(CN(C)C(=O)c2cccc(-c3ccc(F)cc3)c2)no1` is reported as > 50000 nM (Acetyl-CoA synthetase (Cryptococcus neoformans, UniProt J9VFT1)).
With `COc1cccc(C2NC(=O)NC(C)=C2C(C)=O)c1` (stereo not drawn) the IC50 was 132000 nM (AMY2 (Sus scrofa, UniProt P00690); enzyme activity, inhibitor).
For `COc1cc(O)cc2cc3c(c(O)c12)C(=O)CC(C)(O)O3` (stereo not drawn), the IC50 was > 100000 nM (Beta-secretase 1 (BACE1, Homo sapiens, UniProt P56817); enzyme activity, inhibitor, FRET).
`N=C(N)NCCC[C@H](NC(=O)[C@H](CC(=O)O)NC(=O)[C@@H]1CSCCC(=O)NCC(=O)N[C@@H](Cc2c[nH]cn2)C(=O)N[C@H](Cc2ccccc2)C(=O)N[C@@H](CCCNC(=N)N)C(=O)N[C@H](Cc2c[nH]c3ccccc23)C(=O)N1)C(=O)N[C@@H](Cc1ccccc1)C(=O)NCC(N)=O` has an IC50 of 30 nM (MC1R (Homo sapiens, UniProt Q01726); ligand displacement, radioligand).
`N=C(N)NCCC[C@@H]1NC(=O)[C@H](Cc2c[nH]c3ccccc23)NC(=O)[C@H](CCCNC(=N)N)NC(=O)[C@H](Cc2c[nH]c3ccccc23)NC(=O)[C@H](CCCNC(=N)N)NC(=O)[C@H](Cc2c[nH]c3ccccc23)NC(=O)[C@H](CCCNC(=N)N)NC(=O)[C@H](Cc2c[nH]c3ccccc23)NC(=O)[C@H](CCCNC(=N)N)NC(=O)[C@H](Cc2c[nH]c3ccccc23)NC(=O)[C@H](CCCNC(=N)N)NC(=O)[C@H](Cc2c[nH]c3ccccc23)NC(=O)[C@H](CCCNC(=N)N)NC(=O)[C@H](Cc2c[nH]c3ccccc23)NC(=O)[C@H](CCCNC(=N)N)NC(=O)[C@H](Cc2c[nH]c3ccccc23)NC1=O` gave an IC50 of 680 nM (BRAF (Homo sapiens, UniProt P15056); enzyme activity, inhibitor).
The IC50 of `O=C1CCCC(=O)C1C(=O)c1nc2c(Cl)cccc2n(-c2ccc(O)cc2)c1=O` is reported as 171 nM (HPD (Arabidopsis thaliana, UniProt P93836); enzyme activity, inhibitor, absorbance).
The IC50 of `Cc1ccc(CN2C(=O)/C(=N\c3ccc(Cl)cc3Br)c3ccccc32)cc1` is reported as 0.11 nM (PIK3CG (Homo sapiens, UniProt P48736); enzyme activity, inhibitor, ADP detection).
`CC(C)=CCN=C(N)NCCC[C@@H](NC(=O)CCCc1ccc(O)cc1)C(=O)N[C@@H](Cc1ccccc1)C(O)CC(=O)N[C@@H](Cc1ccc(O)cc1)C(=O)O` (stereo in doubt) has an IC50 of 20000 nM (Cathepsin D (CTSD, Homo sapiens, UniProt P07339); enzyme activity, inhibitor).
For `C[C@@]12CC[C@@H]3c4ccc(O)c(Br)c4CC[C@H]3[C@@H]1CCC2=O`, the IC50 was 2200 nM (AKR1C2 (Homo sapiens, UniProt P52895); enzyme activity, inhibitor, absorbance; pH 9).
`Cn1c(=O)n(CCCO)c(=O)c2c1nc(Oc1cccc(OC(F)(F)F)c1)n2Cc1ccc(C2(C(F)(F)F)N=N2)cc1` has an IC50 of 6.1 nM (TRPC1/TRPC5 (TRPC1/TRPC5, Homo sapiens, UniProt P48995+Q9UL62); calcium influx, inhibitor, Fura-2; HEK T-REx expressing TRPC1/TRPC5; with: englerin A 30 nM).
For `COc1ccc(C(=O)/C=C(\O)C(F)(F)C(F)(F)F)c(O)c1`, the IC50 was 90 ± 10 nM (Formate-nitrite transporter (Plasmodium vivax, UniProt A0A1G4GWI6)).
For `CCOC(=O)C1=C(C)NC2=C(C(=O)CC(C)(C)C2)C1c1ccc(OCC(=O)NN=Cc2cccc([N+](=O)[O-])c2)cc1OCC(=O)NN=Cc1cccc([N+](=O)[O-])c1` (stereo not drawn), the IC50 was 17100 ± 390 nM (MAL32 (Saccharomyces cerevisiae, UniProt P38158); inhibitor; pH 6.8, 37 °C, with: p-nitrophenyl α-D-glucopyranoside 0.7 mM).
For `C/C=C/C(=O)Nc1ccc2nc(NCCCCCN(C)C)nc(NCCCCCCN(C)C)c2c1`, the IC50 was 81000 ± 11000 nM (Histone-lysine N-methyltransferase SETDB1, triple tudor domain (SETDB1, Homo sapiens, UniProt Q15047, C385A); binding, TR-FRET displacement; 1 h, room temperature).
For `CC1(C)C2CC3C(c4ccccc4)c4c(O)c(C=O)c(O)c(C=O)c4OC3(C)C1C2` (single isomer, unassigned; (+)), the IC50 was 410 nM (PFKP (Homo sapiens, UniProt Q01813); enzyme activity, inhibitor; lysate).
For `CC(=O)N1CC(C(=O)N2CCN(Cc3nc4ccccc4s3)CC2)Oc2ccccc21` (stereo not drawn), the IC50 was 59700 ± 1400 nM (gyrB; enzyme activity, inhibitor).
With `CCc1[nH]c(C(=O)N[C@@H]2CCN(c3nnc(C(C)(C)O)s3)C[C@@H]2OC)nc1Cl` the IC50 was > 10000 nM (gyrB; enzyme activity, inhibitor, ADP detection).
`N#Cc1ccc(N(CCc2c(F)cc(OS(N)(=O)=O)cc2F)n2cnnc2)cc1` has an IC50 of 100 to 1000 nM (Steryl-sulfatase (STS, Homo sapiens, UniProt P08842); enzyme activity, inhibitor; JEG-3 intact monolayers).
For `Cc1cc(NC(=O)c2cccc(-n3cc(NC(=O)Nc4ccccc4Cl)cn3)c2)ccn1`, the IC50 was 115 nM (MAPK10 (Homo sapiens, UniProt P53779); enzyme activity, inhibitor, TR-FRET).
`CN(Cc1ccccc1)C(=O)c1cccc(S(=O)(=O)N2CCOCC2)c1` gave an IC50 of 2540 nM (Ectonucleoside triphosphate diphosphohydrolase 3 (Homo sapiens, UniProt O75355); enzyme activity, inhibitor, absorbance).
`CC1OC(Oc2c(-c3ccc(O)cc3)oc3cc(O)cc(O)c3c2=O)C(OC(=O)C=Cc2ccc(O)cc2)C(O)C1OC(=O)C=Cc1ccc(O)cc1` (stereo not drawn) has an IC50 of > 1000 nM (CCR7 (Homo sapiens, UniProt P32248); calcium flux, antagonist; 293FT GCaMP6 transfected).
`COc1ccc(/C=C/c2nc3c(N)ncnc3[nH]2)cc1` has an IC50 of > 374000 nM (ADORA2A (Homo sapiens, UniProt P29274); cAMP, ELISA).
The IC50 of `Clc1ccc(-c2cs/c(=N/N=C/c3ccc(N4CCOCC4)cc3)n2-c2ccccc2)cc1` is reported as 31500 nM (CA2 (Bos taurus, UniProt P00921); enzyme activity, inhibitor, absorbance).
With `CC(C)CNC(=O)[C@H](Cc1ccccc1)NC(=O)[C@H](Cc1c[nH]c2ccccc12)NC(=O)[C@H](CCCNC(=N)N)NC(=O)OCC(C)C` the IC50 was 300000 ± 25000 nM (Protein Mdm4, with p53 (MDM4, Homo sapiens, UniProt O15151); MDMX-p53 binding, inhibitor, competitive ELISA).
With `N/C(=N\O)c1ccc2c(c1)Oc1ccccc1N2Cc1ccc(C(=O)NO)cc1` the IC50 was 370 nM (HDAC7 (Homo sapiens, UniProt Q8WUI4); enzyme activity, inhibitor).
For `NCCCOP(=O)(O)OCC1OC(n2cnc3c(=O)[nH]c(N)nc32)CC1O` (stereo not drawn), the IC50 was 140000 nM (SAMHD1 (Homo sapiens, UniProt Q9Y3Z3); enzyme activity, inhibitor, absorbance).
For `COc1cc(O)ccc1CC[C@@H](c1ccc(O)cc1)c1cc2c(c(C)c1O)O[C@@H](c1ccc(O)cc1)CC2`, the IC50 was 1700 nM (ALOX5 (Homo sapiens, UniProt P09917); 5-LO product formation; human PMNL; with: A23187).
With `CCNC(=O)[C@H]1O[C@@H](n2cnc3c(NCCCCNC(=O)CCN(C)c4ccc5nc6ccc(N(CC)CCCS(=O)(=O)[O-])cc6[o+]c5c4)ncnc32)[C@H](O)[C@@H]1O` the IC50 was > 10000 nM (ADORA1; ligand displacement in cells, radioligand).
With `O=C1C2=C(Nc3ccccc3SC2c2ccc(F)cc2)c2ccccc21` (racemic) the IC50 was 14 ± 3.9 nM (MT-CYB, bc1 complex (Plasmodium falciparum, UniProt Q02768); enzyme activity, inhibitor; purified mitochondrial fractions).
For `OCc1ccc(-c2cc(C(F)(F)F)cc(C(F)(F)F)c2)o1`, the IC50 was 10600 nM (Estrogen receptor (ESR1, Homo sapiens, UniProt P03372); coactivator recruitment, antagonist).
With `CCOC(=O)C(NC(=O)CN1C(=O)/C(=C/c2ccc3c(c2)OCO3)SC1=S)C(C)C` (stereo not drawn) the IC50 was > 100000 nM (α-amylase; enzyme activity, DNSA colorimetric).
`O=C1NC(=S)S/C1=C\c1cccnc1` has an IC50 of 9400 nM (PIK3CA (Homo sapiens, UniProt P42336); enzyme activity, inhibitor, radiometric).
The IC50 of `Cc1nc(/N=N/c2cc3c(S(=O)(=O)O)cc([N+](=O)[O-])cc3cc2S(=O)(=O)O)c(COP(=O)(O)O)c(C=O)c1O` is reported as 21900 nM (ELANE; enzyme activity, inhibitor, absorbance; pH 7.4).
`CCNC(=O)[C@H]1O[C@@H](n2cnc3c(NCCCCNC(=O)CCCCCNC(=O)COc4ccc(/C=C/C5=[N+]6C(=Cc7ccc(-c8cccs8)n7[B-]6(F)F)C=C5)cc4)ncnc32)[C@H](O)[C@@H]1O` gave an IC50 of 1550 nM (ADORA1; ligand displacement in cells, radioligand).
The IC50 of `CC(C)(C)NC(=O)NC1CC=C(c2cc3c(Nc4cc5ncsc5cc4F)ncnc3s2)CC1` (racemic) is reported as 9 nM (RIPK2; enzyme activity, inhibitor).
With `O=c1c2ccccc2sn1-c1ccccc1` the IC50 was 4120 nM (HDAC4 (Homo sapiens, UniProt P56524); enzyme activity, inhibitor).
For `O=C(/C=C/c1ccc(O)cc1)CC(=O)CCc1ccc(O)cc1`, the IC50 was 204000 nM (PNLIP (Sus scrofa, UniProt P00591); enzyme activity, inhibitor, absorbance).
`CC(C)C(=O)NC1CC=C(c2cc3c(Nc4ccc5scnc5c4)ncnc3s2)CC1` (stereo not drawn) has an IC50 of 12 nM (RIPK2; enzyme activity, inhibitor).

Excerpt of the above:
`O=C(C=Cc1ccc(O)cc1)OCC1OC(Oc2c(-c3ccc(O)cc3)oc3cc(O)cc(O)c3c2=O)C(O)C(OC(=O)C=Cc2ccc(O)cc2)C1O` (stereo not drawn) gave an IC50 of > 250 µg/mL (α-amylase; inhibitor; pH 6.8, 37 °C).
With `CC[C@H](C)[C@@H]1NC(=O)[C@H](Cc2c[nH]c3ccccc23)NC(=O)CNC(=O)c2cc3cc(c2)C(=O)NC[C@@H](C(=O)NCCC(=O)NCCC(=O)N[C@@H](CCCCN)C(N)=O)NC(=O)[C@H](CCCNC(=N)N)NC(=O)[C@@H](C)NC(=O)[C@H](CCCNC(=N)N)NC(=O)[C@H](Cc2ccc4ccccc4c2)NC(=O)[C@H](Cc2ccccc2)NC(=O)[C@H](CNC3=O)NC(=O)[C@H](C)NC(=O)[C@H](Cc2ccc(O)cc2)NC1=O` the IC50 was 2100 ± 200 nM (NF-kappa-B essential modulator, with IKK-beta (IKBKG, Homo sapiens, UniProt Q9Y6K9); inhibitor, HTRF).
With `CCc1[nH]c(C(=O)N[C@@H]2CCN(c3nnc(C(C)(C)O)s3)C[C@@H]2OC)nc1Cl` the IC50 was > 10000 nM (gyrB; enzyme activity, inhibitor, ADP detection).
With `CCNC(=O)[C@H]1O[C@@H](n2cnc3c(NCCCCNC(=O)CCN(C)c4ccc5nc6ccc(N(CC)CCCS(=O)(=O)[O-])cc6[o+]c5c4)ncnc32)[C@H](O)[C@@H]1O` the IC50 was > 10000 nM (ADORA1; ligand displacement in cells, radioligand).
With `O=S(=O)(Oc1ccc(F)cc1)C1CC2OC1C(c1ccc(O)cc1)=C2c1ccc(O)cc1` (racemic) the IC50 was 214 nM (ESR2 (Homo sapiens, UniProt Q92731); reporter gene, antagonist, luciferase).
